# Literature values as cited in several papers.
# Several values in a cell are separate wells, animals, samples, runs or records. ± marks the error that the study gave.
# SIGMAR1: Sigma non-opioid intracellular receptor 1 (SIGMAR1, Homo sapiens, UniProt Q99720)
# Sequence of UniProt Q99720 (whole entry, looked up): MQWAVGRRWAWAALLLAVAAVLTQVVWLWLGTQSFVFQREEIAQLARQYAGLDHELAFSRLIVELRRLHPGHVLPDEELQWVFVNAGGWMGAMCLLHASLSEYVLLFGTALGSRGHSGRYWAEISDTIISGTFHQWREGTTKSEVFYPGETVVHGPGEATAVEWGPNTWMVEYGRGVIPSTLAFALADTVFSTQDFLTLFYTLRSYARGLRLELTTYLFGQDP
# ribH: 6,7-dimethyl-8-ribityllumazine synthase (ribH, Mycobacterium tuberculosis, UniProt P9WHE9)
# Sequence of UniProt P9WHE9 (whole entry, looked up): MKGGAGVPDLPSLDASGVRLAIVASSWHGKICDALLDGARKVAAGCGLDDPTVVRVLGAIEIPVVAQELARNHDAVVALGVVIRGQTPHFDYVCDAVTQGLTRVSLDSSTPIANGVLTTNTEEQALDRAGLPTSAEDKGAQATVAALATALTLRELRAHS
# CA2: Carbonic anhydrase 2 (CA2, Homo sapiens, UniProt P00918)
# gag-pol protease: Gag-Pol polyprotein, protease (gag-pol, Human immunodeficiency virus type 1 group M subtype B, UniProt P04585)
# Sequence of UniProt Q04609 (whole entry, looked up): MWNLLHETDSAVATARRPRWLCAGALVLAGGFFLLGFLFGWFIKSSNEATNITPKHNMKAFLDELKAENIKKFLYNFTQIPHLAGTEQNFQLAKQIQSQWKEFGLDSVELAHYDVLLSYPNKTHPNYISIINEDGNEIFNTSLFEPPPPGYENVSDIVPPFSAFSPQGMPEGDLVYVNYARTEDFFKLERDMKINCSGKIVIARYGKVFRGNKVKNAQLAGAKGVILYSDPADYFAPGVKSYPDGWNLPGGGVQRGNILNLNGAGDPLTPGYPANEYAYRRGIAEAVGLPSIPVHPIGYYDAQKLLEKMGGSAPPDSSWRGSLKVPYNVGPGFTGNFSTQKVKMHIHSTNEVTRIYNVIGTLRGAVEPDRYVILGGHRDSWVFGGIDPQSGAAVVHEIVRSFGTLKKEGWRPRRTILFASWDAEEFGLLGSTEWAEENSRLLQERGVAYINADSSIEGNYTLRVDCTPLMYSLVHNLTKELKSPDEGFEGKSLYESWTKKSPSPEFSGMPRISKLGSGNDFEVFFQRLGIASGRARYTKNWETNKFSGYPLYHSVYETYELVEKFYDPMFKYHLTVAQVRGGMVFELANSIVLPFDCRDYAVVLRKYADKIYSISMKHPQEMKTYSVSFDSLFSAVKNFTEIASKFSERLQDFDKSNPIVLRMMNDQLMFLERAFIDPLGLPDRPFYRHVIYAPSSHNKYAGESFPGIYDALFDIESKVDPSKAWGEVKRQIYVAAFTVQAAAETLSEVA
# Sequence of UniProt Q9ZMY2 (whole entry, looked up): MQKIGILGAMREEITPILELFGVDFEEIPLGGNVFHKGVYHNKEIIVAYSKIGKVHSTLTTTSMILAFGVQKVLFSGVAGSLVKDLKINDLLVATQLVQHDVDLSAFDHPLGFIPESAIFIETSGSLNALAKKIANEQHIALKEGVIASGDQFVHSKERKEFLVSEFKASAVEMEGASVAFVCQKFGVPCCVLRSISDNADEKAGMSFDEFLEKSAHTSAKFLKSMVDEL
# Sequence of UniProt P30543 (whole entry, looked up): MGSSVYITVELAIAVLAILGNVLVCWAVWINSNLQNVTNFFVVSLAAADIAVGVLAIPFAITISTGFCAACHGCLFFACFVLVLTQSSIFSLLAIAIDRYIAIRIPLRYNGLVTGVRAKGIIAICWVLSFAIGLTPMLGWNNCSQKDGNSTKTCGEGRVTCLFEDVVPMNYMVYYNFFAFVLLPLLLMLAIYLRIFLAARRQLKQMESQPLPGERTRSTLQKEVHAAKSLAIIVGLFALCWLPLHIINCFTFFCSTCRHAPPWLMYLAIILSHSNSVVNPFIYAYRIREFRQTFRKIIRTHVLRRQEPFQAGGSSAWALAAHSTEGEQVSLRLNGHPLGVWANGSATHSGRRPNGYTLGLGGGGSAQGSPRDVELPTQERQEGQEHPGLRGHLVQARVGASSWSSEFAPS
# Sequence of UniProt Q15761 (whole entry, looked up): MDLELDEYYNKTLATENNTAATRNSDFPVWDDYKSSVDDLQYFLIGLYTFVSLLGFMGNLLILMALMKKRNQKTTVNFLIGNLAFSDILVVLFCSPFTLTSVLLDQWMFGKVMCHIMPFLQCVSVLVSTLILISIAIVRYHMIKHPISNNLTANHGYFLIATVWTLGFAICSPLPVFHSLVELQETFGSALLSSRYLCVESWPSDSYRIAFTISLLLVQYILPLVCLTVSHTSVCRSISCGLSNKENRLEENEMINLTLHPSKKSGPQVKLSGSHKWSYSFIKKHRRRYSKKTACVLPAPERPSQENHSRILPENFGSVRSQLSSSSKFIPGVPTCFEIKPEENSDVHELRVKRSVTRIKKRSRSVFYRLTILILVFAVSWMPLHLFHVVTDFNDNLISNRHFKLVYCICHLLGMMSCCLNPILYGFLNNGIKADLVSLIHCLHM
# Sequence of UniProt P07686 (whole entry, looked up): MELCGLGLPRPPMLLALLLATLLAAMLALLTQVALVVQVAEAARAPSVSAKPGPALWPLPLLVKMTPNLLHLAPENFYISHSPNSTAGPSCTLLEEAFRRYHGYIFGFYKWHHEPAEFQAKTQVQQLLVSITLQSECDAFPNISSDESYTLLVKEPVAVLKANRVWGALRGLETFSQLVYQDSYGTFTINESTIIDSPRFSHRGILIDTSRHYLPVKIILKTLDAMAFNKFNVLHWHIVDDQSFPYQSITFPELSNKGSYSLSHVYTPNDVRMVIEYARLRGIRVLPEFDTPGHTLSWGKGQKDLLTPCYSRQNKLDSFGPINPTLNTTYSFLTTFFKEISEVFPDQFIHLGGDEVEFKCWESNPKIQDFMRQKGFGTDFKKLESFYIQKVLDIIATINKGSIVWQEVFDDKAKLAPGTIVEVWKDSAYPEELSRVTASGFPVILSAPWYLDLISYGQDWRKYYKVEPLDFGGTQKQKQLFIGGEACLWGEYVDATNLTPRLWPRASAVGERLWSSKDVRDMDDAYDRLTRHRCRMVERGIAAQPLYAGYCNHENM
# Sequence of UniProt Q9UUB1 (whole entry, looked up): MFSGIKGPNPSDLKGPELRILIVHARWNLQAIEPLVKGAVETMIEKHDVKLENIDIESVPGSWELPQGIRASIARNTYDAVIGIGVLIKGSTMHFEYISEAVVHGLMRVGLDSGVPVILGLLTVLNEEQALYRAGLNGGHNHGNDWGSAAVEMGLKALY
# Sequence of UniProt Q16820 (whole entry, looked up): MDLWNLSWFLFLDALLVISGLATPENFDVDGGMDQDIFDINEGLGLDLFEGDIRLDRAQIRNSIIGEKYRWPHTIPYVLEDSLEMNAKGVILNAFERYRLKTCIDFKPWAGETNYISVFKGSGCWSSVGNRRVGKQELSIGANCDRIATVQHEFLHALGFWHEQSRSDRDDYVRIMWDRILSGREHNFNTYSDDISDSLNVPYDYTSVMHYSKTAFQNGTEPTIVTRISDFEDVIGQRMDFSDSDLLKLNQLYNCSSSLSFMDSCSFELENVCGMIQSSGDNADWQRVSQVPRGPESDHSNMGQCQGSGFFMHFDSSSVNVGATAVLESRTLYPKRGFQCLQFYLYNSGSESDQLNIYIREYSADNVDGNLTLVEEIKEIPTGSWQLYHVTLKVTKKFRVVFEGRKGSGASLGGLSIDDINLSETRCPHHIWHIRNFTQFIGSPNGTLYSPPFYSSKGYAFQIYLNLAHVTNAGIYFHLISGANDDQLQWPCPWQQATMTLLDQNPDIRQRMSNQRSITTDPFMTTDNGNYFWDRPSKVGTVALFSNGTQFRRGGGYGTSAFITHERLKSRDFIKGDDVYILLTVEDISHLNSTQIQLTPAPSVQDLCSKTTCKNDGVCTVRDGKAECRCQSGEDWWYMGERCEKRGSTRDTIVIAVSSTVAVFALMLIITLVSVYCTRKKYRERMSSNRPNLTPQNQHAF
Compound,target,test,test system,conditions,Ki
C=CCC(=N)NCCC[C@H](N)C(=O)O,bovine eNOS,,,,12000 nM
NS(=O)(=O)c1ccc(CCn2c(S)nc3ccccc3c2=O)cc1,carbonic anhydrase I,"enzyme activity, inhibitor",,,31.5 nM
COc1ccc(C(=O)Cc2nsc(Nc3ccc(S(N)(=O)=O)cc3)n2)cc1,human carbonic anhydrase IX,inhibitor,,,86.4 nM
C=CC(=O)N1CCC[C@@H](n2nc(-c3ccc4ccccc4c3)c3c(N)ncnc32)C1,"Epidermal growth factor receptor (EGFR, Homo sapiens, UniProt P00533, L858R)",,,,1.6 ± 0.4 nM
O=C([O-])CN1CCN(CC(=O)[O-])CCN(CC(=O)NCC2CCC(C(=O)NC(Cc3ccc4ccccc4c3)C(=O)NCCCCC(NC(=O)NC(CCC(=O)O)C(=O)O)C(=O)O)CC2)CCN(CC(=O)[O-])CC1.[Ga+3] (centres unmarked),"Glutamate carboxypeptidase 2 (FOLH1, Homo sapiens, UniProt Q04609)",,LNCaP,,6.4 ± 1.02 nM
COC(=O)CN(C/C=C/c1ccc(OC)c(OC)c1)Cc1ccc(F)cc1,9-cis-epoxycarotenoid dioxygenase (recombinant),reversible competitive inhibitor,,,39000 nM
O=c1[nH]cnc2c(CNCC(O)CP(=O)(O)O)c[nH]c12 (racemic),Plasmodium falciparum HGXPRT,inhibitor,,,9 ± 0.1 nM
COc1ccc(C2(CNC(=O)[C@](C)(Cc3c[nH]c4ccccc34)NC(=O)Nc3ccc([N+](=O)[O-])cc3)CCCCC2)nc1,gastrin-releasing peptide receptor,binding,,,1 nM
CC(C)(CCCCCC(O)CCCCCC(C)(C)C(=O)SCCNC(=O)CCNC(=O)C(O)C(C)(C)COP(=O)(O)OP(=O)(O)OCC1OC(n2cnc3c(N)ncnc32)C(O)C1OP(=O)(O)O)C(=O)O (centres unmarked),ATP citrate lyase,,,,2000 nM
O=c1[nH]c(O)nc2c([C@@H]3N[C@H](COP(=O)(O)O)[C@@H](O)[C@H]3O)c[nH]c12,Plasmodium falciparum HGXPRT,inhibitor,,,> 100000 nM
N=C(N)SCc1ccccc1CSC(=N)N,Na+/K+-ATPase,,,,14200 nM
COCCOc1cc2ncnc(Nc3cccc(-c4cn(Cc5ccc(S(N)(=O)=O)cc5)nn4)c3)c2cc1OCCOC,Helicobacter pylori alpha-carbonic anhydrase,"inhibitor, stopped-flow CO2 hydration",,,19.3 nM
O=C(/C=C/C=C/c1ccccc1)c1ccco1,MAO-B,,,,4.1 nM
O=C(/C=C/c1ccsc1)c1cc2ccccc2oc1=O,adenosine A2A receptor (human),,,,> 30000 nM
CNc1ccc(/C=C/c2ccc(O)cc2)cc1,amyloid beta fibrils,binding,in vitro generated fibrils,,6 nM
O=C(CCN(Cc1ccccc1)Cc1ccccc1)NO,"Meprin A subunit beta (MEP1B, Homo sapiens, UniProt Q16820)","enzyme activity, inhibitor",,,74400 nM
Nc1c(SC[C@H](O)[C@H](O)[C@H](O)CO)[nH]c(=O)[nH]c1=O,"6,7-dimethyl-8-ribityllumazine synthase (rib4, Schizosaccharomyces pombe, UniProt Q9UUB1)",inhibitor,,pH 7.0,160 ± 10 nM
O=C(c1ccc(Cl)cc1)N(Cc1ccccc1)C1CCCCC1,RAGE,inhibitor,,with: HMGB1 ligand,148 nM
COCCOc1cc2ncnc(Nc3cccc(-c4cn(Cc5ccc(C(=O)NCCc6ccc(S(N)(=O)=O)cc6)cc5)nn4)c3)c2cc1OCCOC,Helicobacter pylori alpha-carbonic anhydrase,"inhibitor, stopped-flow CO2 hydration",,,805 nM
N=C(N)NCCC[C@@H](NC(=O)C(c1ccccc1)c1ccccc1)C(=O)NCc1ccc(O)cc1,NPFF1R,binding,,,18 nM
CCCCOC(=O)NS(=O)(=O)c1sc(CC(C)C)cc1-c1cccc(CN(Cc2cccnc2)C(C)=O)c1,"angiotensin II type 2 receptor, pig",,uterus membranes,,83 nM
COc1cc2c(cc1OC)CN(CCCCn1ccc3c(OCCF)cccc31)C2,SIGMAR1,binding,,,371 ± 105 nM
CC(=N)NCc1cccc(CN)c1,human nNOS,,,,2000 nM
O=c1[nH]c(SC[C@H](O)[C@H](O)[C@H](O)CO)c([N+](=O)[O-])c(=O)[nH]1,ribH,inhibitor,,pH 7.0,11000 ± 2000 nM
COc1cc2c(cc1OC)[C@@H]1C[C@@H](O)[C@@H](CC(C)C)CN1CC2,5-HT7 receptor,binding,,,1.9 ng/mL
CCOC(=O)C(=O)Nc1c(NC[C@H](O)[C@H](O)[C@H](O)CO)[nH]c(=O)[nH]c1=O,Bacillus subtilis lumazine synthase,inhibitor,recombinant β60 capsid,"pH 7.0, Tris·HCl buffer, with: 2 constant, 1 varied",607000 ± 177000 nM
COc1ccc(CNCCN2C(=O)c3cccc4cccc(c34)C2=O)cc1,"Beta-hexosaminidase subunit beta (HEXB, Homo sapiens, UniProt P07686)",,,,630 nM
O=C(/C=C/Nc1ccccc1)c1cc2ccccc2oc1=O,"Carbonic anhydrase 9 (CA9, Homo sapiens, UniProt Q16790)",inhibitor,,,93.9 nM
O=C1/C(=C/c2cccc(Br)c2)Cc2c(O)cccc21,"Adenosine receptor A2a (Adora2a, Rattus norvegicus, UniProt P30543)",,,,1000 nM
CC[C@H](C)[C@H](NC(=O)[C@H](CC(=O)O)NC(=O)[C@H](CC(C)C)NC(=O)[C@H](CC(C)C)NC(=O)[C@H](CCCCN)NC(=O)[C@H](CCCNC(=N)N)NC(=O)[C@H](CC(N)=O)NC(=O)[C@H](CO)NC(=O)[C@H](Cc1c[nH]cn1)NC(=O)[C@H](C)NC(=O)[C@H](CCC(N)=O)NC(=O)[C@H](CCC(N)=O)NC(=O)[C@H](C)NC(=O)[C@H](CC(C)C)NC(=O)[C@H](CCC(N)=O)NC(=O)[C@H](CC(=O)O)NC(=O)[C@H](C)NC(=O)[C@H](CCCCN)NC(=O)[C@@H](NC(=O)[C@H](CCSC)NC(=O)[C@H](CCC(=O)O)NC(=O)[C@H](CC(C)C)NC(=O)[C@@H](NC(=O)[C@H](CCC(=O)O)NC(=O)[C@H](CCCNC(=N)N)NC(=O)[C@H](CC(C)C)NC(=O)[C@H](CC(C)C)NC(=O)[C@H](Cc1c[nH]cn1)NC(=O)[C@H](Cc1ccccc1)NC(=O)[C@@H](NC(=O)[C@H](CC(C)C)NC(=O)[C@H](CC(=O)O)NC(=O)[C@H](CC(C)C)NC(=O)[C@H](CO)NC(=O)[C@@H](NC(=O)[C@@H]1CCCN1C(=O)[C@@H]1CCCN1C(=O)[C@H](CCC(=O)O)NC(=O)[C@H](CCC(N)=O)NC(=O)[C@@H](N)CO)[C@@H](C)CC)[C@@H](C)O)C(C)C)[C@@H](C)O)C(=O)N[C@@H](C)C(N)=O,human CRF1 receptor (cloned),,,,~6 nM
NS(=O)(=O)c1ccc(CCNC(=O)CSc2nc3ccc(I)cc3c(=O)n2Cc2ccccc2)cc1,"carbonic anhydrase II, human",,,,3.3 to 35 nM
C#CCN(C)Cc1cc2ccc(OCCCN3CCCCC3)cc2n1C,histamine H3 receptor (human),binding,,,10.8 nM
C[C@H](NC(=O)CC[C@H](N)C(=O)O)C(=O)NCP(=O)(O)CCCCNCCCCN,"Trypanothione synthetase (Trypanosoma brucei, UniProt Q586P2)",,,,500 to 1200 nM
CC(C)C(=O)Nc1c(NC[C@H](O)[C@H](O)[C@H](O)CO)[nH]c(=O)[nH]c1=O,ribH,inhibitor,,pH 7.0,42000 ± 16000 nM
O=c1[nH]cnc2c(CN[C@H](CO)CCP(=O)(O)O)c[nH]c12,Plasmodium falciparum HGXPRT,inhibitor,,,0.6 nM and 0.5 to 0.6 nM
O=C(Cc1cccs1)N[C@H](B(O)O)c1cccc(C(=O)O)c1,ADC-7 beta-lactamase,inhibitor,,,21 nM
O=c1[nH]c(O)nc2c(CN[C@H](CO)CCP(=O)(O)O)c[nH]c12,Plasmodium falciparum HGXPRT,inhibitor,,,8000 ± 500 nM
CCCCSC[C@H]1CN(Cc2c[nH]c3c(N)ncnc23)C[C@@H]1O,"Aminodeoxyfutalosine nucleosidase (Helicobacter pylori, UniProt Q9ZMY2)",inhibitor,,,0.036 nM
COc1cc2c(cc1OC)CN(CCCCn1ccc3cc(OCCF)ccc31)C2,SIGMAR1,binding,,,187 ± 1.41 nM
NCCN(CCNC(=O)c1ccc(C(=O)NCCOCCOCCNC(=O)/N=C(/N)NCCC[C@@H](NC(=O)C(c2ccccc2)c2ccccc2)C(=O)NCc2ccc(O)cc2)cc1)CCNC(=O)c1ccc(C(=O)NCCOCCOCCNC(=O)/N=C(/N)NCCC[C@@H](NC(=O)C(c2ccccc2)c2ccccc2)C(=O)NCc2ccc(O)cc2)cc1,"Neuropeptide Y receptor type 5 (NPY5R, Homo sapiens, UniProt Q15761)",binding,,,> 5000 nM
Nc1nc2c(CNCCCP(=O)(O)O)c[nH]c2c(=O)[nH]1,Trypanosoma cruzi HGPRT,inhibitor,,,3600 ± 300 nM
CC[C@H](C)[C@H](NC(=O)[C@@H]1CSSC[C@H](NC(=O)[C@H](Cc2ccc(O)cc2)NC(=O)CN)C(=O)N[C@@H](CO)C(=O)N[C@@H](CCCNC(=N)N)C(=O)N[C@@H](CO)C(=O)N[C@@H](Cc2ccc(O)cc2)C(=O)N2CCC[C@H]2C(=O)N2CCC[C@H]2C(=O)N[C@@H](C(C)C)C(=O)N1)C(=O)N1CCC[C@H]1C(=O)N[C@@H](CC(=O)O)C(=O)O,MASP-2,inhibitor,,,180 nM
CN(Cc1c[nH]c2c(=O)[nH]cnc12)[C@H](CO)CCP(=O)(O)O,Trypanosoma cruzi HGPRT,inhibitor,,,1400 ± 30 nM
NS(=O)(=O)c1ccc(CCn2c(SCC(=O)N/N=C/c3ccccc3)nc3ccccc3c2=O)cc1,CA2,"enzyme activity, inhibitor",,,52.6 nM
CCN(CC)c1ncnc2c1ncn2[C@@H]1O[C@H](COP(=O)(O)OP(=O)(O)C(Br)(Br)P(=O)(O)O)[C@@H](O)[C@H]1O,CD73,,,,451 nM
C/C(=N\NC(=O)CSc1nc2ccccc2c(=O)n1CCc1ccc(S(N)(=O)=O)cc1)c1ccccc1,CA2,"enzyme activity, inhibitor",,,67.5 nM
COC(=O)NC(C(=O)NN(Cc1ccc(Br)cc1)CC(O)(Cc1ccccc1)C(=O)NCc1ccccc1)C(C)(C)C (centres unmarked),gag-pol protease,inhibitor,,,88 nM
COCCOc1cc2ncnc(Nc3cccc(-c4cn(Cc5ccc(C(=O)Nc6cccc(S(N)(=O)=O)c6)cc5)nn4)c3)c2cc1OCCOC,Helicobacter pylori alpha-carbonic anhydrase,"inhibitor, stopped-flow CO2 hydration",,,43.6 nM
COc1cc2nc(SC(C)C(=O)NCCc3ccc(S(N)(=O)=O)cc3)n(Cc3ccccc3)c(=O)c2cc1OC (centres unmarked),"carbonic anhydrase II, human",,,,3.3 to 35 nM
CNC(=O)C(NC(=O)C(O)(Cc1ccccc1)CN(Cc1ccc(Br)cc1)NC(=O)C(NC(=O)OC)C(C)(C)C)C(C)(C)C (centres unmarked),gag-pol protease,inhibitor,,,180 nM

# Repeated from above:
Compound,target,test,test system,conditions,Ki
CC[C@H](C)[C@H](NC(=O)[C@@H]1CSSC[C@H](NC(=O)[C@H](Cc2ccc(O)cc2)NC(=O)CN)C(=O)N[C@@H](CO)C(=O)N[C@@H](CCCNC(=N)N)C(=O)N[C@@H](CO)C(=O)N[C@@H](Cc2ccc(O)cc2)C(=O)N2CCC[C@H]2C(=O)N2CCC[C@H]2C(=O)N[C@@H](C(C)C)C(=O)N1)C(=O)N1CCC[C@H]1C(=O)N[C@@H](CC(=O)O)C(=O)O,MASP-2,inhibitor,,,180 nM
COc1ccc(CNCCN2C(=O)c3cccc4cccc(c34)C2=O)cc1,"Beta-hexosaminidase subunit beta (HEXB, Homo sapiens, UniProt P07686)",,,,630 nM
COCCOc1cc2ncnc(Nc3cccc(-c4cn(Cc5ccc(C(=O)NCCc6ccc(S(N)(=O)=O)cc6)cc5)nn4)c3)c2cc1OCCOC,Helicobacter pylori alpha-carbonic anhydrase,"inhibitor, stopped-flow CO2 hydration",,,805 nM
O=C(/C=C/Nc1ccccc1)c1cc2ccccc2oc1=O,"Carbonic anhydrase 9 (CA9, Homo sapiens, UniProt Q16790)",inhibitor,,,93.9 nM
CCCCOC(=O)NS(=O)(=O)c1sc(CC(C)C)cc1-c1cccc(CN(Cc2cccnc2)C(C)=O)c1,"angiotensin II type 2 receptor, pig",,uterus membranes,,83 nM
CNc1ccc(/C=C/c2ccc(O)cc2)cc1,amyloid beta fibrils,binding,in vitro generated fibrils,,6 nM
O=c1[nH]c(SC[C@H](O)[C@H](O)[C@H](O)CO)c([N+](=O)[O-])c(=O)[nH]1,ribH,inhibitor,,pH 7.0,11000 ± 2000 nM
